Measured values from different studies.
Compare with care: the assays were run in different laboratories.
lasR: Transcriptional activator protein LasR (lasR, Pseudomonas aeruginosa, UniProt P25084)
Chain of UniProt P25084 (whole entry, looked up): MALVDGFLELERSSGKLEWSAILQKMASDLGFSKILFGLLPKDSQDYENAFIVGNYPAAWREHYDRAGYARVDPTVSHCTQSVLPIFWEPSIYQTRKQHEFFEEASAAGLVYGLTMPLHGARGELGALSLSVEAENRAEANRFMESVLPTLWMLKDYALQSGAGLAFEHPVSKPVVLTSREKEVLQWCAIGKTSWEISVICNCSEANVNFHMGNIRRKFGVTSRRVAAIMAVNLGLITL
APP: Amyloid-beta precursor protein (APP, Homo sapiens, UniProt P05067)
Chain of UniProt P05067 (whole entry, looked up): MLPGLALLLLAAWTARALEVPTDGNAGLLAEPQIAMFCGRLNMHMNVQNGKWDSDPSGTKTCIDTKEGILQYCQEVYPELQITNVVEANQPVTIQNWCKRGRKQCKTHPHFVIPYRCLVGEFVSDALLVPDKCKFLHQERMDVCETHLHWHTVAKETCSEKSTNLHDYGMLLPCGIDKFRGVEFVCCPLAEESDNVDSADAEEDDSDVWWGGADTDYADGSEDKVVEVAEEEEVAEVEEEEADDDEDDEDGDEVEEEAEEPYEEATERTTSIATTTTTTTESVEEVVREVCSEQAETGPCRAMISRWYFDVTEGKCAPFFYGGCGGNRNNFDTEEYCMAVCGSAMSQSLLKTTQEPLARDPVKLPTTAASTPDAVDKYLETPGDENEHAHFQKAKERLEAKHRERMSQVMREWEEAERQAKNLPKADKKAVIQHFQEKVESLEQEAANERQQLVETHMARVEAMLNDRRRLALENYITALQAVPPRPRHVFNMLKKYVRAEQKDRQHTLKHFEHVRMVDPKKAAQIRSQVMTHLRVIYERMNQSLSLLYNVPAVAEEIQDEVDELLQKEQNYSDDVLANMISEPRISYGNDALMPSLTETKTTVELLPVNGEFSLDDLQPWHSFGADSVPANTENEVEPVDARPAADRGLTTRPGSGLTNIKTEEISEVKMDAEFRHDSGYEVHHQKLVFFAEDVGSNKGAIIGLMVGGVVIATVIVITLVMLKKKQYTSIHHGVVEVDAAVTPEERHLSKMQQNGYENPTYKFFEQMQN
Chain of UniProt C7C422 (whole entry, looked up): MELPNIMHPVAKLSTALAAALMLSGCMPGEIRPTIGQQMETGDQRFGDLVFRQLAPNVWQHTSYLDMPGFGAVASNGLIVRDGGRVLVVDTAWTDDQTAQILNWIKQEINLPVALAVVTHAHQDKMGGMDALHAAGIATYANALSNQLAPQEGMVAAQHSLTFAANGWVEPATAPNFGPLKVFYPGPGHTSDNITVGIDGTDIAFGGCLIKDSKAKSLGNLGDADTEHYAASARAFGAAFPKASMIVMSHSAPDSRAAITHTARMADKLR
Chain of UniProt Q6W5P4 (whole entry, looked up): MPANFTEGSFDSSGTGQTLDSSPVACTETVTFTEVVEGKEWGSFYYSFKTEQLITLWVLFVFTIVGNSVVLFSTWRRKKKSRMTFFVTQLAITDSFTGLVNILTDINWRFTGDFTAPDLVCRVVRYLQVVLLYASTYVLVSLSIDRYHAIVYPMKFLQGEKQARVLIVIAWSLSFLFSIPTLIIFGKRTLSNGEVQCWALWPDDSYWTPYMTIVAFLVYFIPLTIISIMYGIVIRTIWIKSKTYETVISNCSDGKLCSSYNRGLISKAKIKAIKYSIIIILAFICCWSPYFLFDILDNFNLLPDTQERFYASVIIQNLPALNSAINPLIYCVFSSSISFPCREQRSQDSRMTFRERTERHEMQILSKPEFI
Chain of UniProt Q13164 (whole entry, looked up): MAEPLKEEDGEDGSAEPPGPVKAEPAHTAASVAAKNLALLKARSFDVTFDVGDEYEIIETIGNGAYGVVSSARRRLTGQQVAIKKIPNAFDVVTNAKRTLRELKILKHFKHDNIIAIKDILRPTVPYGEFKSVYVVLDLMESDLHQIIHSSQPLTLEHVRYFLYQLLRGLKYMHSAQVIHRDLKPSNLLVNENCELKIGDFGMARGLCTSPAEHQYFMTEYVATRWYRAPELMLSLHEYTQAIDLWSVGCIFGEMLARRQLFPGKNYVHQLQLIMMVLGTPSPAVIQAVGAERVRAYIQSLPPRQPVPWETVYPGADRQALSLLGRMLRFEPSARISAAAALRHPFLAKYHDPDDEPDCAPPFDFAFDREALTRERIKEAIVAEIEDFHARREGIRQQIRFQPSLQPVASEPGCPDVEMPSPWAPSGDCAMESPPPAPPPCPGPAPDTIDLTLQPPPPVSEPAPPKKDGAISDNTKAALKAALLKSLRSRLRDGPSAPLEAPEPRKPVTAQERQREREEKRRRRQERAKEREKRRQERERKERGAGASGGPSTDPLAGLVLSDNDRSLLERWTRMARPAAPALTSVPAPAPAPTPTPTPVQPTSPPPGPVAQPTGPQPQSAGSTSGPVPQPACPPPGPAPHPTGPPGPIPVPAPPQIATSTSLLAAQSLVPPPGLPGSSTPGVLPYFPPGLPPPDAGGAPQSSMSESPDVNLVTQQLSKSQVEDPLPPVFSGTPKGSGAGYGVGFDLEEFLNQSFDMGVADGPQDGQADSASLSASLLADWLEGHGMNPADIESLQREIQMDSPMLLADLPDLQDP
Chain of UniProt P21397 (whole entry, looked up): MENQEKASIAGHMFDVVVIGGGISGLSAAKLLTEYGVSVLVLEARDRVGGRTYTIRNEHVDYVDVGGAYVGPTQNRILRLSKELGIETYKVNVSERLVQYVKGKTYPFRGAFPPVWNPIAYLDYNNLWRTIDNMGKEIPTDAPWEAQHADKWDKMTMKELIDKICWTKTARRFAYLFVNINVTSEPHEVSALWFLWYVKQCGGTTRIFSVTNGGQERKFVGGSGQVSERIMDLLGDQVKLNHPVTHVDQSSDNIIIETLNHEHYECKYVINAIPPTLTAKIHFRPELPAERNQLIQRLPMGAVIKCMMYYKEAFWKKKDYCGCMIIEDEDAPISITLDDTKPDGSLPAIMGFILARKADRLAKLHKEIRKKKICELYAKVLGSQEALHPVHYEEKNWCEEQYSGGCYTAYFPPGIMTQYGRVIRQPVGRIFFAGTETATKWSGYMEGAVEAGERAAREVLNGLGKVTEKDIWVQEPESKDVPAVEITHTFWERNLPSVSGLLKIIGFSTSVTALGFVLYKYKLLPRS
Chain of UniProt P54578 (whole entry, looked up): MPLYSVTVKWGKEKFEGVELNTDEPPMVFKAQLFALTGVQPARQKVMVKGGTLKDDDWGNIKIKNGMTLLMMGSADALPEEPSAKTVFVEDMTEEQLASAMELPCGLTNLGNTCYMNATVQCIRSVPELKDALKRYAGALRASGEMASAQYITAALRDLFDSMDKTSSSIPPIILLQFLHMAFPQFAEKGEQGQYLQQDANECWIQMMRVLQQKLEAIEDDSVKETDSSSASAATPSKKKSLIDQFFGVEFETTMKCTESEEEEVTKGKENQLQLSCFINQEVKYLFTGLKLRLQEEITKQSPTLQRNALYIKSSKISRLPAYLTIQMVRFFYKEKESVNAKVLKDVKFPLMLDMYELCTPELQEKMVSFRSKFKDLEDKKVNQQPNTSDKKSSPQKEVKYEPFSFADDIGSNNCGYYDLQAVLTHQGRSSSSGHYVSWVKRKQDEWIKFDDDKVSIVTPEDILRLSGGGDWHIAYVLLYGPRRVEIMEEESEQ
Chain of UniProt Q96GD4 (whole entry, looked up): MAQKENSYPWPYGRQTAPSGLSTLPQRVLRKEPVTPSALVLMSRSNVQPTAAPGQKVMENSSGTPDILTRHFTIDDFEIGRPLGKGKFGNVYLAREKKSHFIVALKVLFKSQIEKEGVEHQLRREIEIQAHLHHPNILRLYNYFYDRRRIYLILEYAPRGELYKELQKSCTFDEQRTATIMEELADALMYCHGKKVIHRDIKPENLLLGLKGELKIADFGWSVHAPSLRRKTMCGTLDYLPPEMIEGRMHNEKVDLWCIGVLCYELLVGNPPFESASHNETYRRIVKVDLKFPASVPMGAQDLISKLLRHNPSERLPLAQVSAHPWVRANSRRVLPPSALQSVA

Compound | target | test | conditions | inhibition
CCCCc1cn(-c2ccc(C(=O)N[C@H]3CCOC3=O)cc2)nn1 | lasR | reporter gene, antagonist | 100 µM, together with: OdDHL 10 nM | 60%
CCCCc1nc2ccc(/N=N/c3ccc(Br)cc3)cc2c(-c2ccccc2)c1I | APP | amyloid aggregation, inhibitor, fluorescence | 25 µM | 62.8%
CCS(=O)(=O)N1CCN(CC(=O)Nc2ccc(/C=C/C(=O)c3ccc(OC)c(OC)c3)cc2)CC1 | MAOA (Homo sapiens, UniProt P21397) | enzyme activity, inhibitor, fluorescence | 1 mM | 45%
O=C(N[C@H]1CCOC1=O)c1ccc(-n2cc(-c3cccc(C(=O)N[C@H]4CCOC4=O)c3)nn2)cc1 | lasR | reporter gene, antagonist | 100 µM, together with: OdDHL 10 nM | 22%
CC(C)C(=O)Nc1ccccc1-c1nn[nH]n1 | blaNDM-1 (Klebsiella pneumoniae, UniProt C7C422) | enzyme activity, inhibitor | concentration not given | no inhibition
Cc1ccc(-c2nc3ccc(/N=N/c4ccc(Cl)cc4)cc3c(-c3ccccc3)c2I)cc1 | APP | amyloid aggregation, inhibitor, fluorescence | 25 µM | 61.7%
COC1CC(=O)N(C)C=CCCCC(=O)N(C)C(C(C)C)C(=O)N(C)C(CC(C)C)C(=O)OC(C(C)C)CC(C)C1 (stereo not drawn) | Neuropeptide S receptor, isoform B (NPSR1, Homo sapiens, UniProt Q6W5P4) | β-arrestin recruitment, antagonist | 20 µM | > 70%
[Cl][Au-][P+](c1ccccc1)(c1ccccc1)c1cc[cH-]c1.[Cl][Au-][P+](c1ccccc1)(c1ccccc1)c1cc[cH-]c1.[Cl][Ti+2][Cl] | MAPK7 (Homo sapiens, UniProt Q13164) | kinase activity | 10 µM | ≥ 50%
Cc1ccc(N2CC3CCC(C2)N3C)cc1C(=O)N[C@H](C)c1cc(-c2cnn(C)c2)nc2ccccc12 | USP14 (Homo sapiens, UniProt P54578) | enzyme activity | concentration not given | no inhibition
CC(=O)NC(Cc1ccc(Br)c(Cl)c1)C(=O)N[C@@H](C)C(=O)N1CCC[C@H]1C(=O)N1CCC[C@H]1C(=O)N[C@@H](CCC(=O)O)C(=O)N[C@@H](Cc1c[nH]cn1)C(=O)N[C@@H](CO)C(=O)N[C@H](C(=O)N[C@@H](C)C(N)=O)[C@@H](C)OP(=O)(O)O (stereo partly drawn) | Aurora kinase B (AURKB, Homo sapiens, UniProt Q96GD4) | enzyme activity, inhibitor | 10 µM | 1.6%
CCCCCc1cn(-c2ccc(C(=O)N[C@H]3CCOC3=O)cc2)nn1 | lasR | reporter gene, antagonist | 10 µM, together with: OdDHL 10 nM | 44%
O=C(O[C@@H]1Cc2c(O)cc(O)cc2O[C@@H]1c1cc(O)c(O)c(O)c1)c1cc(O)c(O)c(O)c1 | Genome polyprotein, protease (ZIKV, UniProt A0A024B7W1) | enzyme activity, inhibitor, FRET | 100 µM, pH 7 | > 40%
